Assay results pooled from the literature.
Protocols differ between the studies behind these lines.

`CC(C)C1NC(=O)C(C(=O)NC(C(=O)NC2C(=O)N3C2SC(C)(C)C3C(=O)O)c2ccccc2)=C1O` (stereo not shown) has an MIC of over 200 µg/mL (Escherichia coli; broth microdilution; isolate IU 356 A, KPC-3, VIM-1, TEM; no clavulanic acid).
`N=C(N)NCCC[C@H](NC(=O)[C@H](Cc1c[nH]c2ccccc12)NC(=O)[C@H](CCCNC(=N)N)NC(=O)[C@H](Cc1c[nH]c2ccccc12)NC(=O)[C@H](Cc1c[nH]c2ccccc12)NC(=O)[C@H](Cc1c[nH]c2ccccc12)NC(=O)[C@H](CCCNC(=N)N)NC(=O)[C@H](Cc1c[nH]c2ccccc12)NC(=O)[C@@H](N)CCCNC(=N)N)C(=O)N[C@@H](Cc1ccccc1)C(N)=O` gave an MIC of 8 µM (Candida albicans; broth microdilution; CGMCC 2.209, RPMI 1640-MOPS; 48 h, 30 °C, added: NH4Cl 6 µM).
The MIC of `N=C(N)NCCC[C@H](NC(=O)CCCCCNC(=O)[C@H](CCCNC(=N)N)NC(=O)[C@H](CCCNC(=N)N)NC(=O)CCCCCNC(=O)[C@H](CCCNC(=N)N)NC(=O)[C@H](CCCNC(=N)N)NC(=O)CCCCCNC(=O)[C@H](CCCNC(=N)N)NC(=O)[C@H](CCCNC(=N)N)NC(=O)CCCCCNC(=O)[C@@H](N)CCCNC(=N)N)C(=O)NCCCCCC(=O)NCCC(=O)O` is reported as over 192 µM (Escherichia coli; broth microdilution; ATCC 25922, Mueller-Hinton broth; added: MgCl2 20 mM).
`N=C(N)c1ccc(OCc2cc(Br)cc(COc3ccc(C(=N)N)cc3)c2)cc1` has an MIC of 100 µg/mL (Escherichia coli; mcr-1; 20 h, compound alone).
The MIC of `CC[C@H](C)[C@H](NC(=O)[C@H](C)NC(=O)[C@H](CCCCN)NC(=O)[C@H](CC(C)C)NC(=O)[C@H](C)NC(=O)[C@@H](NC(=O)[C@H](Cc1c[nH]cn1)NC(=O)[C@H](CC(C)C)NC(=O)[C@@H](NC(=O)[C@@H](NC(=O)[C@H](CCCCN)NC(=O)[C@H](C)NC(=O)[C@H](C)NC(=O)[C@H](CO)NC(=O)[C@H](CCCCN)NC(=O)[C@H](Cc1ccccc1)NC(=O)[C@@H](NC(=O)[C@H](CCCCN)NC(=O)[C@H](CC(C)C)NC(=O)[C@H](Cc1ccccc1)NC(=O)[C@H](CO)NC(=O)[C@H](CCCCN)NC(=O)[C@H](Cc1c[nH]c2ccccc12)NC(=O)[C@H](CCCCN)NC(C)=O)[C@@H](C)O)[C@@H](C)O)C(C)C)[C@@H](C)O)C(=O)N[C@@H](CO)C(=O)N[C@@H](CO)C(N)=O` is reported as 5.96 µg/mL (Klebsiella pneumoniae; non-ESBL; geometric mean of 40 strains).
With `C#CCOc1ccc2oc(-c3ccc(OC)cc3)c(C(=O)OCC)c2c1CN1CCCCC1` the MIC was 13 µM (Mycobacterium smegmatis; mc2 155).
The MIC of `CC(C)[C@H](NC(=O)[C@H](CCCNC(=N)N)NC(=O)[C@H](Cc1c[nH]c2ccccc12)NC(=O)[C@H](CCCNC(=N)N)NC(=O)[C@H](Cc1c[nH]c2ccccc12)NC(=O)[C@H](Cc1c[nH]c2ccccc12)NC(=O)[C@H](Cc1c[nH]c2ccccc12)NC(=O)[C@H](CCCNC(=N)N)NC(=O)[C@H](Cc1c[nH]c2ccccc12)NC(=O)[C@@H](N)CCCNC(=N)N)C(N)=O` is reported as 16 µM (Candida albicans; CGMCC 2.209; no added salts).
The MIC of `C[C@@H](O)[C@H](NC(=O)[C@H](Cc1c[nH]c2ccccc12)NC(=O)[C@H](Cc1c[nH]c2ccccc12)NC(=O)[C@H](Cc1c[nH]c2ccccc12)NC(=O)[C@@H](NC(=O)[C@H](Cc1c[nH]c2ccccc12)NC(=O)[C@H](CCCNC(=N)N)NC(=O)[C@@H](N)CCCNC(=N)N)[C@@H](C)O)C(=O)N[C@@H](Cc1c[nH]c2ccccc12)C(=O)N[C@@H](CCCNC(=N)N)C(=O)N[C@@H](CCCNC(=N)N)C(N)=O` is reported as 128 µM (Lacticaseibacillus rhamnosus; 1.038, probiotic strain; 24 h, 37 °C, tested up to 128 µM).
For `CC1(C)SC2C(NC(=O)C(NC(=O)C3=C(O)CN(c4ccccc4)C3=O)c3ccccc3)C(=O)N2C1C(=O)O` (stereo not shown), the MIC was over 200 µg/mL (Escherichia coli; broth microdilution; ATCC 35218, low-level TEM-1; no clavulanic acid).
The MIC of `CC(C)C[C@H](NC(=O)[C@H](CCCNC(=N)N)NC(=O)[C@H](Cc1c[nH]c2ccccc12)NC(=O)[C@H](CCCNC(=N)N)NC(=O)[C@H](Cc1c[nH]c2ccccc12)NC(=O)[C@H](Cc1c[nH]c2ccccc12)NC(=O)[C@H](Cc1c[nH]c2ccccc12)NC(=O)[C@H](CCCNC(=N)N)NC(=O)[C@H](Cc1c[nH]c2ccccc12)NC(=O)[C@H](CCCNC(=N)N)NC(=O)CN)C(N)=O` is reported as 32 µM (Candida albicans; broth microdilution; CGMCC 2.209, RPMI 1640-MOPS; 48 h, 30 °C, added: FeCl3 4 µM).
With `CC(C)(C)Oc1ccc(CC2NC(=O)C(C(=O)NC(C(=O)NC3C(=O)N4C3SC(C)(C)C4C(=O)O)c3ccccc3)=C2O)cc1` (stereo not shown) the MIC was over 200 µg/mL (Escherichia coli; broth microdilution; ATCC 35218, low-level TEM-1; no clavulanic acid).
With `CC[C@H](C)[C@H](NC(=O)[C@H](CCCNC(=N)N)NC(=O)[C@H](Cc1c[nH]c2ccccc12)NC(=O)[C@H](CCCNC(=N)N)NC(=O)[C@H](Cc1c[nH]c2ccccc12)NC(=O)[C@H](Cc1c[nH]c2ccccc12)NC(=O)[C@H](Cc1c[nH]c2ccccc12)NC(=O)[C@H](CCCNC(=N)N)NC(=O)[C@H](Cc1c[nH]c2ccccc12)NC(=O)[C@H](CCCNC(=N)N)NC(=O)CN)C(N)=O` the MIC was 16 µM (Candida albicans; broth microdilution; CGMCC 2.209, RPMI 1640-MOPS; 48 h, 30 °C, added: FeCl3 4 µM).
The MIC of `CC(C)CC1NC(=O)C(C(=O)NC(C(=O)NC2C(=O)N3C2SC(C)(C)C3C(=O)O)c2ccccc2)=C1O` (stereo not shown) is reported as 50 µg/mL (Escherichia coli; broth microdilution; Keio mutant JW5195-1; 18 h).
With `C[C@@H](O)[C@H]1C(=O)N2C(C(=O)O)=C(SCCN=CN)C[C@H]12` the MIC was 16 µg/mL (Klebsiella pneumoniae; broth microdilution; KPC-100 producing).
With `CC1=C(/C=C/C(C)=C/C=C/C(C)=C/C(=O)Nc2ccc(O)cc2)C(C)(C)CCC1` the maximum inhibition was 15.7% (human coronavirus OC43; virus-induced cell killing; MRC-5; screen).
`CC1NC(=O)C(C(=O)NC(C(=O)NC2C(=O)N3C2SC(C)(C)C3C(=O)O)c2ccccc2)=C1O` (stereo not shown) gave an MIC of 100 µg/mL (Escherichia coli; broth microdilution; Keio mutant JW2142-1).
For `CC(C)C[C@@H](NC(=O)[C@H](C)NC(=O)CNC(=O)[C@@H](NC=O)C(C)C)C(=O)N[C@@H](C)C(=O)N[C@@H](C(=O)N[C@H](C(=O)N[C@@H](C(=O)N[C@@H](Cc1c[nH]c2ccccc12)C(=O)N[C@H](CC(C)C)C(=O)N[C@@H](Cc1cc2ccccc2[nH]1)C(=O)N[C@H](CC(C)C)C(=O)N[C@@H](Cc1c[nH]c2ccccc12)C(=O)N[C@H](CC(C)C)C(=O)N[C@@H](Cc1c[nH]c2ccccc12)C(=O)NCCO)C(C)C)C(C)C)C(C)C`, the MIC was 0.066 µM (Streptococcus pyogenes; broth microdilution; SSI-9).
`N=C(N)NCCC[C@H](NC(=O)CN)C(=O)N[C@@H](Cc1c[nH]c2ccccc12)C(=O)N[C@@H](CCCNC(=N)N)C(=O)N[C@@H](Cc1c[nH]c2ccccc12)C(=O)N[C@@H](Cc1c[nH]c2ccccc12)C(=O)N[C@@H](Cc1c[nH]c2ccccc12)C(=O)N[C@@H](CCCNC(=N)N)C(=O)N[C@@H](Cc1c[nH]c2ccccc12)C(=O)N[C@@H](CCCNC(=N)N)C(=O)N[C@@H](Cc1ccccc1)C(N)=O` gave an MIC of 8 µM (Candida albicans; broth microdilution; 56214, RPMI 1640-MOPS; 48 h, 30 °C).
`Oc1cccc(-c2nc(N3CCOCC3)c3oc4ncccc4c3n2)c1` gave a maximum inhibition of 0% (human coronavirus OC43; virus-induced cell killing; MRC-5; maximum over 10 doses).

Excerpt of the above:
`N=C(N)c1ccc(OCc2cc(Br)cc(COc3ccc(C(=N)N)cc3)c2)cc1` has an MIC of 100 µg/mL (Escherichia coli; mcr-1; 20 h, compound alone).
